Published values from different studies.
Protocols differ between the studies behind these lines. Values joined by “and” are separate records of one study, mostly repeats; a detail may differ. ± marks the error that the study gave.
UCHL1: Ubiquitin carboxyl-terminal hydrolase isozyme L1 (UCHL1, Homo sapiens, UniProt P09936)
Sequence of UniProt P09936 (whole entry, looked up): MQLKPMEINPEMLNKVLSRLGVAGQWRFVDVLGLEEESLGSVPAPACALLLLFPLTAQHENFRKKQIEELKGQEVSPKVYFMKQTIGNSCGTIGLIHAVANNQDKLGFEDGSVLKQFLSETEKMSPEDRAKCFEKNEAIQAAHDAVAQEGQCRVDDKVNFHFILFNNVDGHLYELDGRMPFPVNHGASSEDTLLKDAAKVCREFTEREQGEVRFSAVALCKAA

Structure (SMILES)	tested on	assay	test system	conditions	scale	measurement	result
COc1ccc(C(O)COc2ccc(-c3csc(-c4ccc(OCC(O)c5ccc(OC)c(OC)c5)cc4)n3)cc2)cc1OC (stereo not shown)	–	–	C57BL/6J mice, plasma	oral, 30 mg/kg	reference: 30 mg/kg over 10 mg/kg	AUC(0-inf) ratio	3.4
CC(=O)c1cccc(CN2CCCC(CCC(=O)NCc3ccc(F)c(F)c3)C2)c1 (stereo not shown)	Trypanosoma cruzi	reporter translation, Renilla luciferase mRNA translation	cell-free extract	40 µM	reference: DMSO	inhibition	-11.9%
COc1cc2c3c(n(CCCN4CCOCC4)c(=O)c2cc1OC)-c1cc2c(cc1C3=O)OCO2	–	–	beagle dog, male, plasma	intravenous infusion, 10 mg/m^2, 1 h infusion, vehicle 1	–	CL	28 ± 9.7 L/h/m²
O=C(Nc1ccccc1)C12CC3CC(C1)CC(n1cnc([N+](=O)[O-])n1)(C3)C2	Trypanosoma cruzi	reporter translation, Renilla luciferase mRNA translation	cell-free extract	40 µM	reference: DMSO	inhibition	-5.7%
Cc1cc(-c2nnc(N)nc2-c2ccc(F)cc2)cc(Cl)n1	–	refers to: decreased appetite, any grade	post-IO patients with other tumours	oral, 100 mg once daily	–	incidence of treatment-related AE	23.8%
O=C(COc1ccc(Cl)cc1)NC12CC(c3nnc([C@H]4C[C@@H](OC(F)(F)F)C4)o3)(C1)C2	–	refers to: Epistaxis	healthy humans, both sexes	oral, 400 mg, single ascending dose	reference: subjects	treatment-emergent adverse events	16.7%
Cc1ccc(C(=O)Nc2ccnc(S(N)(=O)=O)c2)c(N2CCCC(F)(F)CC2)n1	–	–	rhesus monkey, plasma	oral, 1 mg/kg	–	unbound plasma concentration	19 to 94 nM
CN(C)c1ccc2c(c1)c(=O)n(-c1ccc(C[C@H](NC(=O)c3c(Cl)cccc3Cl)C(=O)O)cc1)c(=O)n2C	–	–	cynomolgus monkey, liver	–	–	unbound fraction	0.053
CCN1/C(=C/C(C)=O)Sc2ccc(F)cc21	–	–	cynomolgus monkey	oral, 100 mg/kg, 2 h post-dose	–	QT interval	239 ± 28 ms
C[C@H](CS)C(=O)N1CCC[C@H]1C(=O)O	–	–	male Hartley guinea pigs, anaesthetized	intravenous, 10 mg/kg over 10 min, after infusion	–	mean blood pressure	31 ± 0.2 mmHg
CCC(CC)C(=O)Oc1cccc(C(O)CCN)c1.O=CO (stereo not shown)	–	scotopic ERG	BALB/cJ mice	intraperitoneal, 10 mg/kg, 1 h dark adaptation, with: 10,000 lx photobleach, 10 min	–	ERG a-wave amplitude	9 µV and 30 µV and 8 µV and 14 µV and 21 µV
CC(C)C[C@H](NC(=O)[C@H](CC(C)C)NC(=O)[C@H](Cc1c[nH]c2ccccc12)NC(=O)[C@H](CCC(=O)O)NC(=O)[C@@H](NC(=O)[C@H](Cc1ccccc1)NC(=O)[C@H](CCC(=O)O)NC(=O)[C@H](CCCCNC(=O)COCCOCCNC(=O)COCCOCCNC(=O)CC[C@H](NC(=O)CCCCCCCCCCCCCCCCCCC(=O)O)C(=O)O)NC(=O)[C@H](C)NC(=O)[C@H](CCCCN)NC(=O)[C@H](CCCCN)NC(=O)[C@H](CCC(=O)O)NC(=O)[C@H](CC(=O)O)NC(=O)[C@H](CC(C)C)NC(=O)[C@H](Cc1ccc(O)cc1)NC(=O)[C@H](CCCCN)NC(=O)[C@H](CO)NC(=O)[C@H](Cc1ccc(O)cc1)NC(=O)[C@H](CC(=O)O)NC(=O)[C@H](CO)NC(=O)[C@@H](NC(=O)[C@H](Cc1ccccc1)NC(=O)[C@@H](NC(=O)CNC(=O)[C@H](CCC(N)=O)NC(=O)C(C)(C)NC(=O)[C@@H](N)Cc1c[nH]cn1)[C@@H](C)O)[C@@H](C)O)C(C)C)C(=O)N[C@@H](CCC(=O)O)C(=O)NCC(=O)NCC(=O)N1CCC[C@H]1C(=O)N[C@@H](CO)C(=O)N[C@@H](CO)C(=O)NCC(N)=O	–	–	human, plasma	subcutaneous, 16 mg weekly, week 20, cohorts 1 and 2	–	CLss/F	0.02 L/h
COc1cc2[nH]c(C)c(-c3ccoc3)c(=O)c2cc1Cl	–	–	PAMPA	pH 7.4	–	Papp	67 ×10⁻⁶ cm/s
Cc1cc(-c2nccc3c2ccn3CC(=O)Nc2ccc(-c3cnccn3)cn2)ccn1	–	–	healthy human volunteers	oral, 7 mg single dose, single ascending dose	–	upper abdominal pain incidence	0%
CC(C)Nc1ccnc(Nc2cccc(-c3cccnc3)c2)n1	–	–	MDCKII-WT cells	10 µM, pH 7.4	–	Papp (B to A)	50.7 ± 20.2 ×10⁻⁶ cm/s
CCO[C@H]1CCN(Cc2c(OC)cc(C)c3[nH]ccc23)[C@H](c2ccc(C(=O)O)cc2)C1	–	–	human mild hepatic impairment, plasma	oral, 200 mg single dose, median	–	total half-life	24.3 h
O=C(Nc1nc2cccc(-c3ccc(CN4CCS(=O)(=O)CC4)cc3)n2n1)C1CC1	–	refers to: vascular disorders	rheumatoid arthritis patients	oral, 200 mg once daily, 4 weeks, any relatedness	–	treatment-emergent adverse events	0%
CCCCc1oc2ccccc2c1C(=O)c1cc(I)c(OCCN(CC)CC)c(I)c1	–	–	male Hartley guinea pigs, anaesthetized	intravenous, 20 mg/kg group, baseline before infusion	–	mean blood pressure	42 ± 0.3 mmHg
Cn1c(C(F)(F)F)cc(=O)n(-c2cc(Oc3cccnc3OCC(=O)O)c(Cl)cc2F)c1=O	–	–	beagle dog, female, plasma	oral capsule, 300 mg/kg/day epyrifenacil, day 1, 90-day study	–	Cmax	7300 ng/mL
C[C@H]1CN(c2n[nH]c3nc(N[C@H]4CC[C@H](NS(=O)(=O)CCC(F)(F)F)CC4)ncc23)CCO1	–	–	male Han Wistar rat	oral, 1000 mg/kg/day, 7 days	reference: vehicle	calcium concentration	0.94 fold
C=CC(=O)N(C)CCOc1c(N)ncnc1-c1cc(F)cc(NC(=O)c2ccc(C3CC3)cc2F)c1C	–	–	human	oral, 20 mg, day 7, median, with: ritonavir	–	AUC(0-last) per dose	19.9 ng·h/mL/mg
O=C(O)CNC(=O)c1nc(Cl)c2ccccc2c1O	–	–	–	–	–	pKa (basic)	< 2

Structure (SMILES)	tested on	assay	test system	conditions	scale	measurement	result
Cc1nc(-c2cnc(NC(C)C)n(C)c2=O)ccc1Oc1ccnc(-c2cnn(C)c2)c1	–	–	Beagle dog, male, plasma	oral, 3 mg/kg, crossover study, mean	–	Tmax	1.67 h
CNC(=O)c1ccc(-c2cnc3ncc(Cc4ccc5ncccc5c4)n3n2)cc1F	–	CTCAE v4.0, any causality	human cancer patients	oral, 600 mg twice daily, expansion cohort at RP2D	–	upper abdominal pain incidence (all grades)	5%
CC(C)[C@@H](CS(=O)(=O)C(C)C)N1C(=O)[C@@](C)(CC(=O)O)C[C@H](c2cccc(Cl)c2)[C@H]1c1ccc(Cl)cc1	–	–	FVB mice Abcb1a/b knockout, spinal cord	intravenous, 20 mg/kg	–	AUC(0-inf)	8510 ± 1010 ng·h/mL
CC(F)(F)c1cc(F)ccc1-c1sc2cc(O)ccc2c1Oc1ccc(/C=C/C(=O)O)cc1	–	–	human, serum	oral, 600 mg once daily, cycle 1 day 28, fasted, median	–	Tlast	23.9 h
Cc1nccc2c1c(=O)n(C)c1cc(OC[C@@H](N)CC(C)C)c(C#N)cc21	–	–	rat, plasma	intrathecal, 3 µg, 30 min	–	concentration	3.2 nM
CC(C)c1nc(N(C)S(C)(=O)=O)nc(-c2ccc(F)cc2)c1/C=C/[C@@H](O)C[C@@H](O)CC(=O)O	–	–	Wistar albino rat, both sexes, plasma	oral, 20 mg/kg, 8 h	–	plasma concentration	404 ng/mL
CC(=O)NCCc1c[nH]c2ccc(O)cc12	–	sulfation, substrate	pooled human liver cytosol	50 µM, 30 min, with: 50 mM NaF	–	specific activity	25.4 ± 1.3 pmol/min/mg
N#Cc1ccc2c(c1)[C@H]1CCCN(C(=O)c3ccc4[nH]cnc4c3)[C@H]1C2	–	–	human, male	240 mg, day 7	–	DHEA-S level	9 µmol/L
Cc1cc(Nc2cc3ncccc3c(N[C@@H]3C[C@H]4CC[C@@H](C3)N4CCC#N)n2)n[nH]1	–	–	healthy human subjects	oral, 100 mg, 2 weeks, single ascending dose	–	pruritus incidence	0%
COc1cc2[nH]c(C)c(-c3ccc(OC(F)(F)F)cc3)c(=O)c2cc1Cl	–	–	PAMPA	pH 7.4	–	Papp	6 ×10⁻⁶ cm/s
CC#CC(=O)N1C[C@@H]2CN(S(=O)(=O)c3ccc(OC)cc3)C[C@H](C1)O2	UCHL1	covalent, intact protein LC-MS	–	12.5 µM	–	labelling	12.7%
CCCCCCCOc1ccc(CCC(N)(CO)CO)cc1C(F)(F)F.Cl	–	–	healthy men, plasma	oral, 0.25 mg, day 1	–	AUC(0-tau)	2.59 ng·h/mL
O=C(COC(=O)c1n[nH]c2ccccc12)Nc1ccc(N2CCCCC2)cc1	–	–	sheep erythrocytes	1 h, pH 7.5	–	maximum haemolysis	16.5%
COc1cc2c(Nc3ccc(Cl)c(Cl)c3F)ncnc2cc1OC[C@@H]1C[C@@H]2CN(C)C[C@@H]2C1	–	–	FVB wild-type mice, both sexes, plasma	intraperitoneal infusion (osmotic pump), dose not given, 48 h	–	unbound plasma concentration	26.9 ng/mL
CNCCOC12CC3(C)CC(C)(CC(Cn4ncc(-c5ccc(N6CCc7cccc(C(=O)Nc8nc9ccccc9s8)c7C6)nc5C(=O)O)c4C)(C3)C1)C2	–	–	beagle dog, male, anaesthetised	intravenous bolus, 0.03 mg/kg, 105 min	reference: baseline	QTcV interval change	9 ms
CCc1c(-c2ccccc2)c(-c2ccccc2)nn1-c1ccccc1-c1cccc(OCC(=O)O)c1	–	–	Sprague-Dawley rat	intravenous, dose not given	–	AUMC(0-t)	2750 h²·ng/mL and 2020 h²·ng/mL and 1570 h²·ng/mL
CC(C)NCC(O)c1ccc(NS(C)(=O)=O)cc1 (racemic)	–	–	male Hartley guinea pigs, anaesthetized	intravenous, 3 mg/kg over 10 min, after infusion	–	mean blood pressure	34 ± 0.3 mmHg
CC(C)(C)c1ccc(O)c(CN(Cc2cc(C(C)(C)C)ccc2O)C2CCC(NC(N)=O)CC2)c1 (stereo not shown)	–	–	mouse brain	5 ng/g, time not given, freeze-thaw, 3 cycles, -20 °C	–	recovery	99.8 ± 1.18%
CCOc1c([C@H](C)n2nc(C)c3c(N)ncnc32)cc(Cl)c(F)c1[C@@H]1CNC(=O)C1	–	–	patients, monotherapy	oral, 45 mg once daily, cycle 1 day 1	–	Tmax median	1 h
CCn1c(=O)c(-c2cc(NC(=O)Nc3ccccc3)c(F)cc2Br)cc2cnc(NC)cc21	–	–	human plasma	150 ng/mL, 1 weeks, 4 °C, low QC	–	mid-term stability accuracy	4.27%
Nc1c(C(=O)CCl)c(=O)[nH]c(=O)n1Cc1ccccc1	UCHL1	covalent, intact protein LC-MS	–	12.5 µM	–	labelling	9.43%

A few entries again:
Structure (SMILES)	tested on	assay	test system	conditions	scale	measurement	result
CCO[C@H]1CCN(Cc2c(OC)cc(C)c3[nH]ccc23)[C@H](c2ccc(C(=O)O)cc2)C1	–	–	human mild hepatic impairment, plasma	oral, 200 mg single dose, median	–	total half-life	24.3 h
CC(F)(F)c1cc(F)ccc1-c1sc2cc(O)ccc2c1Oc1ccc(/C=C/C(=O)O)cc1	–	–	human, serum	oral, 600 mg once daily, cycle 1 day 28, fasted, median	–	Tlast	23.9 h
O=C(COC(=O)c1n[nH]c2ccccc12)Nc1ccc(N2CCCCC2)cc1	–	–	sheep erythrocytes	1 h, pH 7.5	–	maximum haemolysis	16.5%
Cc1nccc2c1c(=O)n(C)c1cc(OC[C@@H](N)CC(C)C)c(C#N)cc21	–	–	rat, plasma	intrathecal, 3 µg, 30 min	–	concentration	3.2 nM
CCOc1c([C@H](C)n2nc(C)c3c(N)ncnc32)cc(Cl)c(F)c1[C@@H]1CNC(=O)C1	–	–	patients, monotherapy	oral, 45 mg once daily, cycle 1 day 1	–	Tmax median	1 h
